Measured values from different studies.
Protocols differ between the studies behind these lines. “And” joins repeats or separate records; there may be more than shown.
Target: Insulin receptor-related protein (INSRR, Homo sapiens, UniProt P14616)

COc1c(Cl)cccc1Nc1c(-c2ccncc2C#C[C@@]2(C)CCCN2C(=O)/C=C/CN(C)C)[nH]c2c1C(=O)NCC2 — remaining binding (binding, competition with immobilised ligand; 3 µM): 100%
Cc1ccc(C)c(-c2ccc3nc(NC(=O)C4CCCCC4)nn3c2)c1 — remaining activity (enzyme activity, Dundee kinase panel; 10 µM): 14%
C=CC(=O)N1CCc2ccc(-n3c(=O)ccc4cnc5ccc(-c6cnn(C)c6)cc5c43)cc21 — remaining binding (KINOMEscan; 1 µM; relative to: DMSO control): 100%
COc1cc(Nc2nc(C)cc(-c3cnn4nc(OC)ccc34)n2)cc(C(F)(F)F)c1 — remaining activity (inhibitor; 1 µM; relative to: control): 86%
COCC12C(=O)NC3C4(C(OC)CC1O)C1CC5(O)C(OC)C(O)C(OC(C)=O)(C1C5OC(=O)c1ccccc1)C3(O)C(OC)C24 (centres unmarked) — remaining activity (kinase activity, inhibitor, ProQinase kinase profiling; 25 µM; relative to: control): 109% and 111%
NC(=O)[C@@H](O)C[C@H]1CCc2sc3ncnc(O[C@H]4CC[C@H](N5CCOCC5)CC4)c3c21 — inhibition (enzyme activity, inhibitor; 10 µM): 20%
COc1c(OCCCN2CCOCC2)ccc2c1N=C(NC(=O)c1cnc(N)nc1)N1CCN=C21 — remaining activity (kinase activity, inhibitor; 1 µM; relative to: untreated control): 112%
CNC(=O)C[C@H](Cc1ccc(C#N)cc1)NC(=O)c1cc(-c2ccc(CN[C@H](C)c3ccc(C)cc3)o2)ccc1Cl — activity vs control (enzyme activity, inhibitor; 1 µM): 103%
Cc1cccc(-c2ccc3nc(NC(=O)C4CCOCC4)nn3c2)c1 — remaining activity (enzyme activity, Dundee kinase panel; 10 µM): 27%
Cc1cccc(O[C@H]2CCC[C@@H](C(C)CNCc3ccncc3)C2)c1 (relative stereo) — inhibition (cell-free assay; 1 µM): 1%
Nc1ncc(-c2cc(-c3cnn(CC(F)(F)F)c3)ncc2F)nc1C(=O)NC1CNCC(F)C1 (centres unmarked) — remaining activity (enzyme activity; 1 µM; relative to: DMSO control): 97%
Nc1ncc2c(n1)-c1c([nH]c3ccc(C4=CCOCC4)cc13)CCC2 — remaining binding (binding, competition with immobilised ligand; 1 µM): 82%
Cc1cnc2nc1Nc1cccc(c1)COC/C=C/COCc1cc(ccc1OCCN1CCOCC1)N2 — remaining binding (binding; 0.1 µM): 68%
CNC1C[S+]2CC[S+]3CC[S+](C1)[Ru-4]321([N]=C=S)[n]2c3ccc(OC)cc3c3c4c(c5cc(F)c[n+]1c5c32)C(=O)NC4=O (centres unmarked) — remaining binding (KinomeScan; 0.1 µM; relative to: untreated): 100%
C=CC(=O)Nc1cccc(-c2cnc3[nH]cc(C(=O)NC(C)(C)C)c3n2)c1 — inhibition (kinase activity; 0.1 µM): -1% and 3%
CC(C)=CC1OC(C)(C)C2C=C3C(=O)C(Cl)=CC(O)C3C3C(O)C4OC4C(=O)C132 (centres unmarked) — remaining binding (cell-free assay, competition with immobilised ligand; 10 µM): 100%
Nc1nc(Nc2ccccc2)sc1C(=O)c1ccccc1 — remaining activity (enzyme activity, inhibitor; 10 µM): 16%
